Experimental data gathered from unrelated publications.
Every numbered part comes from another study and shows a few of its results, in no order.

Study 1 — technique: aptamer microarray, sandwich; form: DNA with 2'F-ANA; sample: in vitro; tested at: 200 nM; added: Cy3 exosite-II aptamer, 400 nM; direction: higher = stronger binding; oligonucleotide: GGTTGGTGTGGTTGG
Target: Prothrombin, mature alpha-thrombin (F2, Homo sapiens, UniProt P00734)
Setting: whole 15-mer aptamer, many near background
| Modification | mean fluorescence intensity [a.u.] |
| --- | --- |
| 2'F-ANA at 1 2 3 7 8 9 10 13 15 | 96.7 |
| 2'F-ANA at 1 3 4 5 6 8 9 11 14 | 47.5 |
| 2'F-ANA at 3 4 5 6 8 9 10 12 13 14 | 65.3 |
| 2'F-ANA at 1 2 3 6 7 8 9 13 15 | 142 |
| 2'F-ANA at 2 3 5 8 13 | 81.4 |
| 2'F-ANA at 3 4 5 7 8 9 10 11 13 14 | 56.6 |
| 2'F-ANA at 1 4 5 8 9 10 12 15 | 55.2 |
| 2'F-ANA at 1 3 4 6 7 8 10 12 15 | 81.8 |
| 2'F-ANA at 1 4 6 7 9 10 11 13 14 | 47.2 |
| 2'F-ANA at 1 3 7 11 13 14 | 91.8 |
| 2'F-ANA at 1 2 6 8 9 11 12 | 323 |
| 2'F-ANA at 1 5 6 8 11 12 13 15 | 152 |
| 2'F-ANA at 2 3 5 6 8 9 12 13 14 15 | 59 |
| 2'F-ANA at 4 7 10 11 12 15 | 109 |
| 2'F-ANA at 1 6 9 10 14 | 52.9 |
| 2'F-ANA at 5 6 7 9 10 13 14 15 | 49.9 |
| 2'F-ANA at 2 5 6 10 12 13 15 | 49.1 |
| 2'F-ANA at 6 11 13 15 | 364 |
| 2'F-ANA at 1 4 6 8 9 12 15 | 259 |
| 2'F-ANA at 2 4 5 8 12 15 | 166 |
| 2'F-ANA at 2 4 5 8 9 12 14 | 53.2 |
| 2'F-ANA at 1 6 9 10 15 | 56.4 |
| 2'F-ANA at 1 2 3 4 9 10 11 12 | 97.2 |
| 2'F-ANA at 1 3 6 9 13 14 | 72.8 |
| 2'F-ANA at 1 2 4 6 7 8 9 10 13 14 | 49.6 |

Study 2 — technique: RNA Bind-n-Seq; form: RNA; sample: in vitro; tested at: 365 nM; baseline: no-protein control; direction: higher = stronger binding
Target: RNA binding protein fox-1 homolog 2, RRM domain, GST-SBP tag (RBFOX2, Homo sapiens, UniProt O43251-10, residues 100-194)
Setting: natural RNA segment, single round, ends assumed
All sequences stand within: GGGAGUUCUACAGUCCGACGAUC … UGGAAUUCUCGGGUGCCAA
Construct (chain): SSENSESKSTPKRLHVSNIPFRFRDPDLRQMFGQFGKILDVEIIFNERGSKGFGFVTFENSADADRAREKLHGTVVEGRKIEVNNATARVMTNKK
| Oligonucleotide | RBNS enrichment (R) |
| --- | --- |
| UAAGUAGCAAUGGUUAUUUUUAUUGGUAGUAACUGAACAGUGUUUUGCAAUUUGUGAAACAGUGUAUUGUGUUUUGUAAAAUGAUGUCAUGAAAUGGUGGGUCCUUGGAA | 0.728 |
| CAUUUAGUUCACUGCUAAACAAAUUAAAGCACACUUUUCAGGACUUGCUGGGUCACCUUUUCCUGAGGAAUGAUACAGAAGAGUGUUUUUUCAUAAACUGGACCAUAAUU | 0.816 |
| GAACACCUUGGUUCUGGUUAAACAGCUGUACUUUUGAUAGCUGUGCCAGGAAGGGUUAGGACCAACUACAAAUUAAUGUUGGUUGUCAAAUGUAGUGUGUUUCCCUAACU | 0.254 |
| GUUCCCUGUUAACCUUCUGUUACUCCCUGGGAGAAAGGCGCUGAGCGUGGCAUGCAGGUGUCUUUGCUGUGUUUUUCUCCACUUCUAAAUGGUUCCUGGUUCCUUUCUUC | 0.276 |
| UCCUCAUCCCAACCAGAGGUGGCACACUUGGAUUGAGGGUUGACACAUCUCAUCUCACCCAUCGGCUACCUGCUGUAAUAUAAGACAACAGCUUUUAAACGUGUAUAUAA | 0.677 |
| CCUAACAGUACAGAGCCAUGACUCAAUAAAUACAUGUUAAAUGGAUGAAUGAAUUCCUCUGAAACUCAUUUGAGCUUAUUUAGUCAAAUUCUUUCACUAUUCAAAGUGUG | 0.43 |
| UCUGUAGACUUUUUCUUCUGGCCCUUGUCCCUGCCAGCAAAACGCCCCUUUUCUGAUCAUUCGUGCGCAGAGGGCCUCCCAGUAAUGCCACGCUCUCCAUGCUAGAGAGC | 1.09 |
| CUGGGGCUGCUCACUAGGCCUUGUAAUCACACAGCACAAGCAUACCUCACAGCCACCCUGAGGCUCUCUGACCCUGGGAUGCUGAGGCCUUCUUAGCCUCUAGGUACAGU | 0.329 |
| CUCCACCAACCCAUCAGAAGGAGAAGGAAGGAGACUCACCUCUGCCUCAAUGUGAAUCAGACCCUACCCCACCACGAUGUGGCCCUGGCCUGCUGGGCUCUCCACCUCAG | 0.32 |
| UGCCGGGAGGGGUCGGAUCCUCUAGGCAUCGCCUUCACAGCCCCCUGCCCCCUGCCCUCUGUCCUGGCUCUGCACCUGGUAUAUGGGUCAUGGACCCAGAUGGGGCUUUC | 0.751 |
| GGAGAGAAGUUUGAAGCACAACUCCCUUAAGGUCUCCAAACCAGACGGUGACGCCUGCGGGACCAUCUGGGGCACCUGCUUCCACCCGUCUCUCUGCCCACUCGGGUCUG | 0.191 |
| GGCAUGGAGCCCUGCCCUGAGUGUCUGUCCCUCUUCAGCCAAGCCCAAGUCUCCUAGACCCCCAGGGAGCCAGUGAACUGUCACCUUCUCUUCAUCACAGAAUGAGUAAA | 0.378 |

Study 3 — technique: protein binding microarray; form: double-stranded DNA, one strand shown; sample: in vitro; tested at: not given; baseline: not given; direction: higher = stronger binding
Target: Histone acetyltransferase KAT6A, winged helix 2, GST fusion (KAT6A, Homo sapiens, UniProt Q92794, residues 85-181)
Setting: 8-mer, flanks averaged, mean of 2 arrays, mostly near background
Residues (chain): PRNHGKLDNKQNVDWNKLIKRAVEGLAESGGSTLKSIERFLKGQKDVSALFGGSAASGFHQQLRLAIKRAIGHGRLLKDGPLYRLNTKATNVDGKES
| Oligonucleotide | E-score |
| --- | --- |
| ACTTTTGA | -0.0463 |
| TCATTGAA | 0.0227 |
| ACATTAGG | -0.243 |
| AGAGCGCC | 0.159 |
| CTTCGTCC | 0.105 |
| AACCTTTC | -0.051 |
| AACGGGAC | -0.12 |
| CGGGCCTC | 0.231 |
| CCCGGAGA | 0.189 |
| CAGCATAG | 0.0459 |
| CGTTGGGA | 0.0212 |
| ATGGTGAC | -0.112 |
| CCTTGTTC | -0.129 |
| CTCCCACC | 0.00375 |
| AAGGGTGC | -0.0182 |
| ATGTTGAA | -0.0467 |
| GAGGCGGA | 0.168 |
| GATAGTCA | -0.278 |
| GGCCGCAC | 0.0722 |
| GTATCGCA | 0.0426 |
| CACCTACG | -0.143 |

Study 4 — technique: RNA Bind-n-Seq; form: RNA; sample: in vitro; tested at: not given; baseline: input RNA pool; direction: higher = stronger binding
Target: RING finger protein unkempt homolog, zinc fingers 1-6, GST-SBP tag (UNK, Homo sapiens, UniProt Q9C0B0, residues 30-357)
Setting: RNA with constant flanks, human-mouse chimeric sites, ends assumed
All sequences stand within: GGGAGUUCUACAGUCCGACGAUC … CAACAGAGGAUUGAGCAUCA
Construct (chain): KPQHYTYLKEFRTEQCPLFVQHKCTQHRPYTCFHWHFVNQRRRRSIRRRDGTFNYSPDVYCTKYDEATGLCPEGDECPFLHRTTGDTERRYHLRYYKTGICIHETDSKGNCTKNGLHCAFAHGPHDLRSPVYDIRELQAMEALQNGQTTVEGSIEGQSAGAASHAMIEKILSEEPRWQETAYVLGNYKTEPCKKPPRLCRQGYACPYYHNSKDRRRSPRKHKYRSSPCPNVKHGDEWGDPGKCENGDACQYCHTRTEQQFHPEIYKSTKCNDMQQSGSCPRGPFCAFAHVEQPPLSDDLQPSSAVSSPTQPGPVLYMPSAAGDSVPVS
| Oligonucleotide | bound/input enrichment [ratio] |
| --- | --- |
| UGUAGUUUCUUGAUUUAUCAUUUUUCUCUUUUCUUUCUUUCCUUUAGGAAAAGCCUAAAGAUUAGACUGUAAGAAAAACAGAAGCCAUGUUUCGAAGACCUGUGUUAAUUACAGGUAGUC | 0.147 |
| GGCUGCUGGUGACUGUCCUGGAGUGGCCGUGUCACCGGCCGGAGCGCGGCCAGACUAAUUUUAGAAAAUGCCAAGUAGGAAGUUUGUUGAGGGUGAAGUGGUCAGAGGUCGAUGGCCUGG | 4.33 |
| ACCUCCCCCUCCCGCCUCACCCCACCCCCGCUUUUUGAAAGUGUGUUGGCGUUUCUUUUCCUUCCCCAUACAAAGUGGUUUUUACCACCCCCGCAAGGGUCUAUCGAAGGGCUUGACGGA | 0.654 |
| GCGGCAGAAUCAUGGAGGACAUAAUGCAGCUCCCCAAAGCGCGCGUCAACGCCGGCAUGUUACCACAGUAUAUCGACAAGCCUGUCUGCUUCGUGGGGAAGCUGGAAAAGAUUCAUCCCA | 0.138 |
| CAGCUGCAGACAGAAAAGGAUGAGAAGGAGCUGUAUAAGGUACAUUUGAAGAAUACAGAAAUAGAAAAUACGAAGCUUGUGUCAGAGGUCCAGACUUUAAAAAAUUUAGAUGGAAACAAA | 4.9 |
| GCUCUUGGGAAUGUAAUAAGUGCCUUGGGAGACAAGAGCAAGAGAGCCACCCAUGUCCCUUACAGAGACUCUAAGCUGACAAGACUCUUGCAGGAUUCCCUUGGGGGUAACAGCCAAACC | 0.122 |
| AAAGAGAAUGGAGAUGUAAAGAUUUUACUGAAAAGUGGGAAGGAGAAACCAAAAACAAAUAUAGAAGACUUACAAAUUAAAAAAGUAAAGAAGAAAAAGAAAAAGAAACACAAAGAGAAU | 13.2 |
| GUAUACGGUUAUCGAGGAAAGGACUGUAGAGCGAAUGUUUACCUUCUUCCCACAGGGGAGAUAGUUUAUUUCAUUGCCUCAGUGGUAGUCCUGUUUAAUUAUGAGGAGAGGACUCAGCGA | 0.328 |
| GGCUGCUGGUGACUGUCCUGGAGUGGCUGGAGUUCCCGCCGGAGCGCGGCCAGACUAAUUUUAGAAAAUGCCAAGUAGGAAAUUUGCUGAGGGUGAAGUGGUCAGAGGCCGAUGGCCUGG | 5.83 |
| GGACAUCUGUCAAAUUGUUAUGUUCCUAAAAACGUAGUGAACACUCUGAUACACUUCAUCUGCUUGUACAUCUGUAUGAUAGAGAAAUGUAAAUAUGUUAAUCCAAGCAAUGUGUCACUU | 0.286 |
| AGGAGGAGGUUAAAGGGUGAGAGUGGGGUGGAAGACUGUGUCAUGGCUCUGGAGACAUUGUUUAGUGUCCUGCUUUCUCUGUGCAGACUUAUGGCUCCUUACACGCCCUUUCUGACUGAG | 0.0792 |
